{"data": "Results of several laboratories", "note": "Every numbered part comes from another study and shows a few of its results, in no order. Substitutions count along the parent as printed."}
{"data": "Series 1", "target": "RNA binding protein fox-1 homolog 2, RRM domain, GST-SBP tag (RBFOX2, Homo sapiens, UniProt O43251-10, residues 100-194)", "method": "RNA Bind-n-Seq", "form": "RNA", "matrix": "in vitro", "tested at": "365 nM", "setting": "natural RNA segment, single round, ends assumed", "baseline": "no-protein control", "reading": "higher = stronger binding", "constant ends, left off below": "GGGAGUUCUACAGUCCGACGAUC … UGGAAUUCUCGGGUGCCAA", "Construct (chain)": "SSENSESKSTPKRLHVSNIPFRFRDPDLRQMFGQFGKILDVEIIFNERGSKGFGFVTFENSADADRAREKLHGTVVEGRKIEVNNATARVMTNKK"}
{"Sequence": "GCUCUCUAGGCCUGACUGCCACCAGAGUCCUCUUACCACCUGCAGUCUGCCACAAAGAUGCCAUAUCAACUCCUCUCUUCCCAAAACUAAACAGGAUCUAUCAUGGUGGC", "RBNS enrichment (R)": 0.478}
{"Sequence": "UGACAGUGUGUUUUGUAAUCUGUCAAUCAGUGUUGGAGAUAUGCCCAGGCUAUUACAGGCAUAUUAUGGACAAAUAUAAAGGCCAACUAGUGAUCCCAGCCCAAGAGGUU", "RBNS enrichment (R)": 0.616}
{"Sequence": "UUGGCAAUUUUUAUGUAGUUUAAGUGGAAUUAAGCAGAGGGAGAUGCUUUUGGGUUUUUAAUAUGCCACUUCUGAGUGAAAACAUCUCGUGGAGUCAUUGUGUUCAGCUC", "RBNS enrichment (R)": 0.853}
{"Sequence": "AGCUUUUGAAAGGCCUCUAACCUAAACUCCCACCCAGCCUGUCAGGCCCGCUUUGAUAUUCAUUCAGUCUGUAGUAGUAACUUCAGAAAGACCUGGAGGACCUUUCCCCU", "RBNS enrichment (R)": 0.198}
{"Sequence": "UGUAAAAAUUUGUGGGGAGUAGGCUCCAGGAAGAGCCAGCAUCCCUGCCCCCGUUUCCCACCGGGGACCUGUACAGAGAUUUUUUUCUACAUUUUUAUUUUUUGUCUCAG", "RBNS enrichment (R)": 0.47}
{"Sequence": "UGAUUUUCCAAAACCACAGCUUCAGCAGCAACAAUCAGAAUGUCCAAAUGCUGUCCUUUCCCUUACAGAGAAGAACAAUGGUAACUAAAAGCUGCAUAUAACUAGCAAUA", "RBNS enrichment (R)": 0.474}
{"Sequence": "UGUGUGUCCACCUUUCCAAAGAAAGGAAAGACAAAAAGAGUUUCCAGAUUGGCCCAGCUGCUGAUAGGUGAUUUUUUUUGCCCAUGAAUCAUGUAUCUCUUAGAGAAGAA", "RBNS enrichment (R)": 0.338}
{"Sequence": "GAUACAUCCUUACCCCUAGAAGGGAAUUCCUCCACCAGGAAAGGGCUCACCACCCAUCUGCACAAGCUCAGUGCUGACCAGGGACCUGGGCUUCACAUUGGGUCCUGGCC", "RBNS enrichment (R)": 0.439}
{"data": "Series 2", "target": "ABI1, truncated, D143A, DHFR fusion (Arabidopsis thaliana)", "method": "DHFR PCA, deep sequencing", "matrix": "yeast", "setting": "methotrexate growth selection, single substitutions", "with": "(+)-ABA 2500 µM", "baseline": "wild-type fitted maximum", "reading": "higher = stronger binding", "starting sequence": "PYL1, truncated, DHFR fusion (Arabidopsis thaliana); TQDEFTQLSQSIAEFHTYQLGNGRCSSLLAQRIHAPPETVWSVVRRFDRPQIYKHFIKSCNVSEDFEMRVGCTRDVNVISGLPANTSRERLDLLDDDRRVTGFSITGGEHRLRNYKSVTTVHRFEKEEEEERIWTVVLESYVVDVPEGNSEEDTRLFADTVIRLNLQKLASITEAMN; partner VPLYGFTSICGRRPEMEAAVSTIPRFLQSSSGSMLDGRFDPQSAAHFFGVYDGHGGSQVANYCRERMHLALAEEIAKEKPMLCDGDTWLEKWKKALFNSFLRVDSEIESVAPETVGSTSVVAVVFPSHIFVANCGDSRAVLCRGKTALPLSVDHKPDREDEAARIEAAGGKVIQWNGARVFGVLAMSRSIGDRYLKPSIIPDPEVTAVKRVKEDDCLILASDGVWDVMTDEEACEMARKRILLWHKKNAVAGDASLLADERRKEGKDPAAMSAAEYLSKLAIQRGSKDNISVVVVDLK"}
{"Variant": "Q167A", "relative binding score [%]": 97.1}
{"Variant": "V78L", "relative binding score [%]": 96.3}
{"Variant": "T173H", "relative binding score [%]": 96.1}
{"Variant": "A170V", "relative binding score [%]": 88.8}
{"Variant": "T101L", "relative binding score [%]": 100}
{"Variant": "T86D", "relative binding score [%]": 95.7}
{"Variant": "G148Q", "relative binding score [%]": 92.1}
{"Variant": "I57W", "relative binding score [%]": -1.73}
{"Variant": "R163T", "relative binding score [%]": 88.4}
{"Variant": "K168F", "relative binding score [%]": 86.3}
{"Variant": "S171D", "relative binding score [%]": 97.6}
{"Variant": "S9G", "relative binding score [%]": 102}
{"Variant": "F47V", "relative binding score [%]": 27.3}
{"Variant": "E174N", "relative binding score [%]": 86.9}
{"Variant": "T6V", "relative binding score [%]": 106}
{"Variant": "R32N", "relative binding score [%]": 87.1}
{"Variant": "P50F", "relative binding score [%]": 1.07}
{"data": "Series 3", "target": "Histone acetyltransferase KAT6A, both winged helices, GST fusion (KAT6A, Homo sapiens, UniProt Q92794, residues 1-181)", "method": "protein binding microarray", "form": "double-stranded DNA, one strand shown", "matrix": "in vitro", "tested at": "not given", "setting": "8-mer, flanks averaged, mean of 2 arrays, mostly near background", "baseline": "not given", "reading": "higher = stronger binding", "Construct (chain)": "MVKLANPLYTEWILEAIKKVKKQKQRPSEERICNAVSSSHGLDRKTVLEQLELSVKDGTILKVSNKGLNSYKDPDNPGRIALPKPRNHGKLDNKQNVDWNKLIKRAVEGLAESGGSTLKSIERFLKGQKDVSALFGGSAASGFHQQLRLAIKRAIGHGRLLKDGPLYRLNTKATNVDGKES"}
{"Sequence": "ACGCTAGG", "E-score": -0.0558}
{"Sequence": "CAATGAGG", "E-score": -0.121}
{"Sequence": "AGCACTAT", "E-score": -0.0152}
{"Sequence": "GAAGCACA", "E-score": -0.181}
{"Sequence": "CAGATCAC", "E-score": -0.0374}
{"Sequence": "CGTTGCGA", "E-score": 0.0726}
{"Sequence": "CCGATCAG", "E-score": 0.103}
{"Sequence": "AAGCATAC", "E-score": 0.00819}
{"Sequence": "ACCAGTGG", "E-score": -0.163}
{"Sequence": "CCGTGCCA", "E-score": 0.0853}
{"Sequence": "CGTCATGA", "E-score": 0.108}
{"Sequence": "AATCACAA", "E-score": -0.0111}
{"Sequence": "ATGCGTAA", "E-score": 0.15}
{"Sequence": "ACCTAGCA", "E-score": -0.176}
{"Sequence": "ACGTAATA", "E-score": -0.0813}
{"Sequence": "ATTACTAG", "E-score": 0.0529}
{"Sequence": "TCCGTTCA", "E-score": 0.164}
{"Sequence": "CAAACGCA", "E-score": 0.0783}
{"Sequence": "AGCAAACG", "E-score": -0.0837}
{"Sequence": "CGCGCCCG", "E-score": 0.382}
{"Sequence": "CGTTATAC", "E-score": 0.0766}
{"data": "Series 4", "target": "RING finger protein unkempt homolog, zinc fingers 1-6, GST-SBP tag (UNK, Homo sapiens, UniProt Q9C0B0, residues 30-357)", "method": "RNA Bind-n-Seq", "form": "RNA", "matrix": "in vitro", "tested at": "not given", "setting": "RNA with constant flanks, human-mouse chimeric sites, ends assumed", "baseline": "input RNA pool", "reading": "higher = stronger binding", "constant ends, left off below": "GGGAGUUCUACAGUCCGACGAUC … CAACAGAGGAUUGAGCAUCA", "sequence of UniProt Q9C0B0 (30-357, looked up)": "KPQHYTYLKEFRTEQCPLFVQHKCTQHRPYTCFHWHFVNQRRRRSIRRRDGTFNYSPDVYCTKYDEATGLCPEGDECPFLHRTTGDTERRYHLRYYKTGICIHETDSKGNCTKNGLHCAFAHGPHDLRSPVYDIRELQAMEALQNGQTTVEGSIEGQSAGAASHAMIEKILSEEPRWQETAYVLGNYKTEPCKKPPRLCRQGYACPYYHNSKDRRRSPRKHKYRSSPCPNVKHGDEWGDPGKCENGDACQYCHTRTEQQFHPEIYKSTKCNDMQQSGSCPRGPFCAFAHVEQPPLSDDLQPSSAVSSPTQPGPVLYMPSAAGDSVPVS"}
{"Sequence": "GGACAUCUGUCAAAUUGUUAUGUUCCUGUGAAACAAGUGAACACUCUGAUACACUUCAUCUGCUUGUACAUCUGUAUUUGUAUAAUAUGUAAAUAUGUUAAUCCAAGAUGAAUUCAACUU", "bound/input enrichment": "0.118 ratio"}
{"Sequence": "AACUUCGUGCAUCGGUUUCCUUUUGUAGCUGUUUCAAUUGGCUUCCUUGUGAAUAAAGAGAUGGAGUUUGGAAUUGUGUACAGUUGUGUGGAAGAUAAGAUGUACACCGGCAGGAAAGGG", "bound/input enrichment": "0.427 ratio"}
{"Sequence": "CUGUGACCACAAGAUCCUACCUGAGUGGCAGCUGAAGCACUUUUCUUCUCCUUGCCUGCCUAGUUUCCCACUGCCCCCCCAUCCCCCAGUGUCGGCUGAGAUGUUGCCUCUGCACGGUUC", "bound/input enrichment": "1.24 ratio"}
{"Sequence": "GAUAGGAAAAACUUGUUGGAGACCCGCUUGCAUGUCACUGGUAGAGACCUGAGGUGUCAAAUAGCUGAAACUUUCGGAUUUCAAGAAAAUUACAUCAAGAUCGUAAUAAAUAAGAAACAG", "bound/input enrichment": "0.643 ratio"}
{"Sequence": "CCAAUUGUGGAGCAGUACUUGAAGACAAAGAAAAAUUCUAAUAAUUUAAUCAUGAAAUACAUUAGCUGCCGCCUGCUGACACUCAUCAUUAUACUGUUAGCGUGUAUCUACCUGGGCUAU", "bound/input enrichment": "0.679 ratio"}
{"Sequence": "UUAUCCAAGACUCAACGAAAGACUCCAACCGUUAUUCAUAAACAUUAUCAAAUUCAUCGGAUUCGACAUUUUUACAUGAGAAAAGUCAAAUUUACUCAACAGAAUUACCAUGACAGACUG", "bound/input enrichment": "0.425 ratio"}
{"Sequence": "CUCAGAGAUGUGGCAUAUCAGUAUGUGAAAAAGGGGGCUCGUAUAUUUUUGGAAGGGAAAGUGGACUAUGGCGAGUACAUGGAUAAAAACAAUGUGAGGCGACAAGCAACAACAAUCAUA", "bound/input enrichment": "0.353 ratio"}
{"Sequence": "GAUAAGAAAAGCUUGUUGGAGACCCGCUUGCAUGUCACUGGUAGAGACCUGAGGUGUCAAAUAGCUGAAACCUUUGGAUUUCAAGAAAAUUACAUCAAAAUUGUCAUAAAUAAGAAACAG", "bound/input enrichment": "0.266 ratio"}
{"data": "Series 5", "target": "Sal-like protein 4, full length isoform B (SALL4, Homo sapiens, UniProt Q9UJQ4-2, residues 1-616)", "method": "universal PBM", "form": "double-stranded DNA, one strand shown", "matrix": "in vitro", "tested at": "not given", "setting": "8-mer, flanks averaged, mean of replicates", "reading": "higher = stronger binding"}
{"Sequence": "AATAGAGT", "E-score": 0.13}
{"Sequence": "AAGGACGT", "E-score": 0.214}
{"Sequence": "GAGACCAC", "E-score": -0.259}
{"Sequence": "ACCATCTC", "E-score": -0.00679}
{"Sequence": "AAACGAGA", "E-score": 0.0837}
{"Sequence": "CTGAATGA", "E-score": 0.0695}
{"Sequence": "CGAAACAA", "E-score": 0.0322}
{"Sequence": "GGGCTAGA", "E-score": -0.181}
{"Sequence": "CGCAGTAG", "E-score": -0.174}
{"Sequence": "CTGAGTCA", "E-score": -0.175}
{"Sequence": "CTACCGGC", "E-score": -0.168}
{"Sequence": "ACGAGAAG", "E-score": -0.0486}
{"Sequence": "ACGACGGG", "E-score": -0.107}
{"Sequence": "CTCGTGAC", "E-score": -0.174}
{"Sequence": "CAATCACA", "E-score": 0.2}
{"Sequence": "CAAAACAA", "E-score": 0.108}
{"Sequence": "CAGGACCC", "E-score": -0.359}
{"Sequence": "AGAGTCGA", "E-score": -0.184}
{"Sequence": "CCCTTCGA", "E-score": -0.217}
{"Sequence": "AATCTGAC", "E-score": 0.0828}
{"Sequence": "ACTTGCGC", "E-score": -0.167}
{"Sequence": "AGAACGAT", "E-score": 0.0512}
{"Sequence": "CAGCTGGA", "E-score": -0.0817}
{"Sequence": "GCACTTCC", "E-score": -0.189}
{"Sequence": "TCCACAGA", "E-score": 0.008}
{"note": "Repeated from above (series 3):"}
{"Sequence": "ACGTAATA", "E-score": -0.0813}
{"Sequence": "ATGCGTAA", "E-score": 0.15}
{"Sequence": "AAGCATAC", "E-score": 0.00819}
{"Sequence": "CGTTGCGA", "E-score": 0.0726}
{"Sequence": "CGTCATGA", "E-score": 0.108}
{"Sequence": "AGCACTAT", "E-score": -0.0152}
